Results collected from several papers.
Parts stem from different laboratories: compare values within a part only.

Study 1
Target: RNA binding protein fox-1 homolog 2, RRM domain, GST-SBP tag (RBFOX2, Homo sapiens, UniProt O43251-10, residues 100-194)
Technique: RNA Bind-n-Seq
Form: RNA
Medium: in vitro
Concentration: 365 nM
Notes: natural RNA segment, single round, ends assumed
Relative to: no-protein control
Direction: higher = stronger binding
Oligonucleotide | RBNS enrichment (R)
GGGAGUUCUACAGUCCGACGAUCUUAAGUAUAUUGCUGGAGAGAGACUAUCCCACCACCUAUACAUCUACAAAGAUAUAUGUCUAAAGUUGGAAAAUCAACUUCUGCUUUCUCAGAAUGGGAGACCGAGCGCAUGGAAUUCUCGGGUGCCAA | 24.9
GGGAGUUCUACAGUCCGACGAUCAUUCUAUUUUUAACCAAAAGUAUACAUUUUACUUUGGCAUGAAAAAUGAUCCCCUUGACUGCAUCAUGCAUGUGCGGAAAAAAUAAAUCCAGAAGUAGCAGAACCCUAGCUGGAAUUCUCGGGUGCCAA | 11
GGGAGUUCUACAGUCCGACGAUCCUUGCUGUGAAGAACAGAGCCCACCCCAUAGCCUAAAUCUGUCCCUUCUAUUCCUUGUCCCCUCCCUGAGUUAGCUGGGCCUUGGUUCUGGGUCCCUGAGCAGGAGGAGGUGGAAUUCUCGGGUGCCAA | 0.575
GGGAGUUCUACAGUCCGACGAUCGCAGGCCACCUCUGGGCAGGACCACCUGCGUCUGGCACCCAGGAGGUGAGGCAGACACCAUGGUUAGGUGAUAGGGUCUGAACCCAGUUGGGGAGACAGAGGGGUUCAGAUGGAAUUCUCGGGUGCCAA | 0.647
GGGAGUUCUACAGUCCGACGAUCUCAGAACUGCCACUGGCUAAAGAUGGUGGGGCCACAUGCUGACCCAGCCCCACAUCCACAUUCUGUUAGAAUGUAGCUCAGGGAGCUUCGUGGACGGCCUUGCUUGCUGUUGGAAUUCUCGGGUGCCAA | 0.702
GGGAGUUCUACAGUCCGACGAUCCACUGAUUCGGUGUUUUUGCAGUGCAUUCAACUUCUACAGAAGUUAACAUAUAAUGUCAAAAUUUUCUAUUCUGGUGCCAAUAUAGAUGAAUUAAUUACGUUCCUGAUAGUGGAAUUCUCGGGUGCCAA | 0.418

Study 2
Target: PABPC1L2, full length, GST fusion (mouse, UniProt A0ABA7IW68)
Technique: RNAcompete
Form: RNA
Medium: in vitro
Concentration: 20 nM
Notes: 7-mer, probes averaged, single round
Relative to: mean of 7-mers
Direction: higher = stronger binding
Target sequence (chain): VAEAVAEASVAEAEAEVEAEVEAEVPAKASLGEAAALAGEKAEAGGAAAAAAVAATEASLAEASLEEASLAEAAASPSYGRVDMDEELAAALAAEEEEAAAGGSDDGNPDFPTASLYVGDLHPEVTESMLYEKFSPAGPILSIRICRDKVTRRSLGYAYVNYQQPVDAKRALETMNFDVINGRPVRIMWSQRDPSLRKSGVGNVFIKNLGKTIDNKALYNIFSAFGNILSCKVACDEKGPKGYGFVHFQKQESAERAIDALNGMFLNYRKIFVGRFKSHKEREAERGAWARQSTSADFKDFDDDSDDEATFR
Oligonucleotide | 7-mer Z-score
AGGGUGU | 0.129
UAGGCCC | -0.132
CCUUGUG | -0.371
UGCUCUU | -0.298

Study 3
Target: Histone acetyltransferase KAT6A, both winged helices, GST fusion (KAT6A, Homo sapiens, UniProt Q92794, residues 1-181)
Technique: protein binding microarray
Form: double-stranded DNA, one strand shown
Medium: in vitro
Concentration: not given
Notes: 8-mer, flanks averaged, mean of 2 arrays, mostly near background
Relative to: not given
Direction: higher = stronger binding
Construct (chain): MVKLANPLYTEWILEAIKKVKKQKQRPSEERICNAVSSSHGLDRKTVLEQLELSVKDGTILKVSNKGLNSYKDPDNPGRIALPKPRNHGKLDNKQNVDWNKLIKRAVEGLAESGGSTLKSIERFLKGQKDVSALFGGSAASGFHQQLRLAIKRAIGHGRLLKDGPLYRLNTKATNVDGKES
Oligonucleotide | E-score
CACCGAGA | -0.104
ATCGTGCC | 0.0821
ACAGTAGT | -0.0677
GTAGGCTA | -0.147
AGAAGGTA | -0.192

Single results of other studies
Substance | target | test | system | setting | how to read | quantity | value
PhoQ, residues 284 288 289 292 302 303 SVHLDV | PhoP, residues 12 14 15 18 19 LWHCS (Escherichia coli, UniProt P23836) | Sort-seq, item: YFP reporter | E. coli | PhoQ-PhoP variant library, with: 10 µM Mg2+ | relative to: high Mg2+ state, higher = stronger signaling | fold induction | 1.28

For quick reference, copied from above (study 1):
Oligonucleotide | RBNS enrichment (R)
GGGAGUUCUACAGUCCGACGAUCUCAGAACUGCCACUGGCUAAAGAUGGUGGGGCCACAUGCUGACCCAGCCCCACAUCCACAUUCUGUUAGAAUGUAGCUCAGGGAGCUUCGUGGACGGCCUUGCUUGCUGUUGGAAUUCUCGGGUGCCAA | 0.702
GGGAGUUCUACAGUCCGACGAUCGCAGGCCACCUCUGGGCAGGACCACCUGCGUCUGGCACCCAGGAGGUGAGGCAGACACCAUGGUUAGGUGAUAGGGUCUGAACCCAGUUGGGGAGACAGAGGGGUUCAGAUGGAAUUCUCGGGUGCCAA | 0.647
